Experimental data pooled from the literature.
Every numbered part comes from another study and shows a few of its results, in no order. Changes are numbered by the printed parent chain.

Sample 1
Target: Sal-like protein 4, full length isoform B (SALL4, Homo sapiens, UniProt Q9UJQ4-2, residues 1-616)
Technique: universal PBM
Form: double-stranded DNA, one strand shown
Sample: in vitro
Concentration: not given
Setting: 8-mer, flanks averaged, mean of replicates
Direction: higher = stronger binding
Strand | E-score
TAGCCCCA | -0.142
ATAGGACA | -0.0329
CGGCATAA | 0.116
CAGTAAGG | -0.0218
AGAGGACG | -0.115
CCATGAAC | -0.074
CGTCTTTA | 0.102
CAAGAAGA | 0.0191
GCTCAAGC | -0.109
CGCGCACC | -0.196
CTAGAGAA | 0.00015
CACACAAA | 0.169
GGACGACA | -0.0431
GGACTATA | 0.229
GCTACGTA | 0.00971

Sample 2
Target: CCND2, cyclin fold, Cln2 fusion (human)
Technique: yeast growth competition, sequencing
Sample: yeast
Setting: weak parent motif
Reference: not given
Direction: higher = stronger binding
Starting sequence: RB1 docking peptide (human); PKPLKKLRFDIEG
Change | normalised enrichment score
PKPLKKLRFDFEG [I11F] | 0.192
PKPDKKLRFDIEG [L4D] | 0.864
PKPAKKLRFDIEG [L4A] | 0.642
PKPLKKLLFDIEG [R8L] | -0.00475
PKPLKKLRFDPEG [I11P] | 0.249
IKPLKKLRFDIEG [P1I] | -0.174
PKPLKKLRFDIEP [G13P] | -0.107
PKPLKKLRFHIEG [D10H] | 0.124
PKPLKKLVFDIEG [R8V] | 0.514
PKPLKKLRFDIEL [G13L] | 0.243

Sample 3
Target: Ras GTPase-activating protein-binding protein 1, full length (G3BP1, Homo sapiens, UniProt Q13283)
UniProt Q13283, sequence (whole entry, looked up): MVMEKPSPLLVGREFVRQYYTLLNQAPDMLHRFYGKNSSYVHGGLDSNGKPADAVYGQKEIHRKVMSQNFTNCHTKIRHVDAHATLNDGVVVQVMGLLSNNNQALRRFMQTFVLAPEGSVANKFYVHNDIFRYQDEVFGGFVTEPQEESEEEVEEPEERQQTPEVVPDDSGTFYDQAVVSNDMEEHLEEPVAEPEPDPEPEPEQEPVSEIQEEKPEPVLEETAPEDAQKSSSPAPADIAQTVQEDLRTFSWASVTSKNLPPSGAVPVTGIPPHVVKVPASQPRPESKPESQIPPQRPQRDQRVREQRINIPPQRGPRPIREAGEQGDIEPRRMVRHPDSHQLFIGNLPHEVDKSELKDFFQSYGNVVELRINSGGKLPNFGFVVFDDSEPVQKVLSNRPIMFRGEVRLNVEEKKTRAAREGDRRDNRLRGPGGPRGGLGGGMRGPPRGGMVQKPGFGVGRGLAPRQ
Technique: RNA Bind-n-Seq
Form: RNA
Sample: in vitro
Concentration: 200 nM
Setting: whole 134-nt RNA, ends assumed
Together with: 150 mM KCl
Reference: input library
Direction: higher = stronger binding
Shared flanks, not repeated: GGGAGUUCUACAGUCCGACGAUC … UGGAAUUCUCGGGUGUCAAGG
Strand | log2 enrichment
UCCUCAAGUCCUGUGCUACACAUCGUAUGUACCGAAUCGGAGGGAGGGGAGGAAAGUAUUAUGUUACGCCGUUCGGAUCUGCACUUCCAG | 0.373
CAAGUCCUGUGCUACACAUCGUAUGUACCGAAUCGGUGGUUUUUGGUUUUUUUGGAAAGUAUUAUGUUACGCCGUUCGGAUCUGCACUUC | -1.03
AGUCCUGUGCUACACAUCGUAUGUACCGAAUCGGAAAAAGGGAAAAAGGGGAAAAAGGAAAGUAUUAUGUUACGCCGUUCGGAUCUGCAC | -0.852
UGGGAGGUGGAUUUUGUUUAUUUUUUUAGCUCAUUUCCAGGGGUGGGAAUUUUUUUUUAAUAUGUGUCAUGAAUAAAGUUCUUUUUGAAA | 0.211
CAAGUCCUGUGCUACACAUCGUAUGUACCGAAUCGGGAAAGGGAAAAAGGGAGGGAAAGUAUUAUGUUACGCCGUUCGGAUCUGCACUUC | 0.803
CACAGACAACACGCACCCACACAGACACAGAGGGAAGGGGUUGGGAUGGGGACAGGGUGCACAGCAGGGCGGGGGAGGACCCCAGCCCCU | 1.8
AGUCCUGUGCUACACAUCGUAUGUACCGAAUCGGGGUUUUGGUUUUGGGGUUUUGGGAAAGUAUUAUGUUACGCCGUUCGGAUCUGCACU | -0.378
UGGCCCUGGUGGCAUGCGGGGAGGAAGAGGUGGCCUCAUGGAUCGUGGUGGUCCCGGUGGAAUGUUCAGAGGAGGCCGUGGUGGAGACAG | -0.021
GUCCUGUGCUACACAUCGUAUGUACCGAAUCGGGUGGGUUUUUUUGGGUUUUUUUGGGAAAGUAUUAUGUUACGCCGUUCGGAUCUGCAC | -0.281

Sample 4
Target: PABPC1L2, full length, GST fusion (mouse, UniProt A0ABA7IW68)
Technique: RNAcompete
Form: RNA
Sample: in vitro
Concentration: 20 nM
Setting: 7-mer, probes averaged, single round
Reference: mean of 7-mers
Direction: higher = stronger binding
Residues (chain): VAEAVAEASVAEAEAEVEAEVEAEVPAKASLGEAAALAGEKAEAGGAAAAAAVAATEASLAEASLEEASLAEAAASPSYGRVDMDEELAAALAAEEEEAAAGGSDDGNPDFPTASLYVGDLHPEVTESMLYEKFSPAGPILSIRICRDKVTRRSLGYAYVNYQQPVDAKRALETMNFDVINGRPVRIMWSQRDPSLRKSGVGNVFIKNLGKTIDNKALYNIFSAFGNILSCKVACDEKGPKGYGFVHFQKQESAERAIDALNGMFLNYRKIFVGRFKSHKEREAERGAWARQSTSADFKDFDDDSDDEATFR
Strand | 7-mer Z-score
AAUCCCU | -0.166
AUCUGUU | -0.347
AUGAUCC | -0.106
CCACGUU | -0.237
CAGUAUU | -0.28
AGUCGCA | -0.195
UGGACGC | 0.0189
AGUAACG | -0.0101
AAUCAAG | 0.45
GAAUUGU | -0.235
ACCGCCA | -0.226
AAUCCCG | -0.309
AUUCGCC | -0.324
GAUCCAG | -0.0283
GGGCUCA | 0.488
UGUUCCU | -0.224
AGACACG | -0.2
ACCACAG | -0.103

Sample 5
Target: Interferon regulatory factor 5, full length, phosphomimetic (IRF5, Homo sapiens, UniProt Q13568-2, residues 1-514, K96S/S451D/S453D/S456D/S462D)
Technique: protein-binding microarray
Form: double-stranded DNA, one strand shown
Sample: in vitro
Concentration: 250 nM
Setting: 60-bp whole probe
Together with: salmon DNA 0.4 mg/ml
Reference: random background probes
Direction: higher = stronger binding
Shared flanks, not repeated: GCCTAGCAC … GTCTTGATTCGCTTGACGCTGCTG
Strand | log fluorescence [z-score]
TTAGGACTGCTTCTGCTTTAGTGCTAG | -0.487
GATGGGCTACCTCTCTTAGAGTGCTAG | -0.481
GTCTCTATCAAAAATACAAAAGTGCTA | 1.18
GACGATATCGGGTATCGAGCCGTGCTA | 2.26
TTAGGACTTGGTTTCGGTTAGTGCTAG | 9.61
TCATTTATCAAATGTGGGACTGTGCTA | 0.401
AATACCTTCGAGTCTGCAACAGTGCTA | 1.21
AGTATGTTCCCTATTTAAGAGTGCTAG | 0.58
AGATATTCAGGTATATAAAGGTGCTAG | 0.679
TTAGGTTTCCTTTTGCTTTAGTGCTAG | 1.78
GACGGTATCCGACTGGGGACGTGCTAG | -0.257
GTCGGACTGGGGACTGGGGACGTGCTA | -0.303
TCAGGCCTCTTCATTCATACTGTGCTA | 0.395

Sample 6
Target: Eukaryotic initiation factor 4A-I (EIF4A1, Homo sapiens, UniProt P60842, residues 1-406, full length assumed)
UniProt P60842, sequence (whole entry, looked up): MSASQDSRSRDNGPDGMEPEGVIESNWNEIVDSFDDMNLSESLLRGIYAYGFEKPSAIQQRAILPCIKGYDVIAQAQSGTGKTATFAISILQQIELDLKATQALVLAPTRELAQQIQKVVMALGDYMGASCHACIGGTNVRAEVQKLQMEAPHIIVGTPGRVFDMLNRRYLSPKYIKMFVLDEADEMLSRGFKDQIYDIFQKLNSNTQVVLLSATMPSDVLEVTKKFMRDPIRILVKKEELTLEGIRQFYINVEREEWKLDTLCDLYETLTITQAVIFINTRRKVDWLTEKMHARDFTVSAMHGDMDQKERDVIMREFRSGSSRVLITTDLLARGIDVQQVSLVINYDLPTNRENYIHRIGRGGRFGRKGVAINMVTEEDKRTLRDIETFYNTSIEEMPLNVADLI
Technique: RNA Bind-n-Seq
Form: RNA
Sample: in vitro
Concentration: 15 pmol
Setting: 4-mer, random 30-nt RNA, single round
Together with: 3 µM RocA, 2 mM AMP-PNP
Reference: mean of 4-mers
Direction: higher = stronger binding
Strand | 4-mer enrichment Z-score
UCUA | -0.685
UUGA | 0.869
UUGU | 0.475
CUGU | -0.216
AGAU | 0.734
UGCU | -0.347
CGAG | 0.982
GCAG | -0.0124
GUUG | 0.94
GGUU | 0.758
AAAU | 1.42
GAUA | 0.762

Sample 7
Target: ABI1, truncated, D143A, DHFR fusion (Arabidopsis thaliana)
Technique: DHFR PCA, deep sequencing
Sample: yeast
Setting: methotrexate growth selection, single substitutions
Together with: (+)-ABA 58 µM
Reference: wild-type fitted maximum
Direction: higher = stronger binding
Starting sequence: PYL1, truncated, DHFR fusion (Arabidopsis thaliana); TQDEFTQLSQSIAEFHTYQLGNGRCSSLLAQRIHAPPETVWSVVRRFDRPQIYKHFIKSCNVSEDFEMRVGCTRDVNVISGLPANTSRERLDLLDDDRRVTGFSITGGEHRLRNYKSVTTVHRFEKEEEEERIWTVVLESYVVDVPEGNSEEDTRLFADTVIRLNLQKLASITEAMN; partner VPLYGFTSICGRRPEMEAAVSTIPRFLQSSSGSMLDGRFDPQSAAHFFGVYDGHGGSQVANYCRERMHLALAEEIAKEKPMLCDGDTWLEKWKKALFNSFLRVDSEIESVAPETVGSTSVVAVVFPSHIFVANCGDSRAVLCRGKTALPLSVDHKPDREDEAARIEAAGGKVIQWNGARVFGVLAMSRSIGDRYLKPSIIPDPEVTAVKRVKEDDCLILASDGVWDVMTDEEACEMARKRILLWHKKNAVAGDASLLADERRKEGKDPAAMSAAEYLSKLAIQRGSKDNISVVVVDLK
Change | relative binding score
G148I | 21.9%
N177T | 82.6%
G23I | 37.5%
I162Q | 7.7%
E125F | 98.5%
L93A | 78.6%
L164G | 67.4%
E128P | 93.4%
S150W | 14.9%
E131I | 94.1%
S150M | 45.3%
E152S | 81.7%
L138N | 18.2%
E38C | 57.1%

For quick reference, copied from above (sample 1):
Strand | E-score
CTAGAGAA | 0.00015
TAGCCCCA | -0.142
GCTCAAGC | -0.109
CGCGCACC | -0.196
GCTACGTA | 0.00971
CCATGAAC | -0.074
ATAGGACA | -0.0329
CAAGAAGA | 0.0191
CACACAAA | 0.169
